Experimental data from different studies.
Numbered parts are unrelated; each lists some results of a single study. Positions count from the first letter of the parent shown.

Set 1 — target: UBE2E1 UBC core domain (UniProt P51965); technique: yeast two-hybrid; matrix: yeast; notes: mostly zero background; baseline: not given; reading: higher = stronger interaction; measurement: lacZ reporter activity
Chain of UniProt P51965 (whole entry, looked up): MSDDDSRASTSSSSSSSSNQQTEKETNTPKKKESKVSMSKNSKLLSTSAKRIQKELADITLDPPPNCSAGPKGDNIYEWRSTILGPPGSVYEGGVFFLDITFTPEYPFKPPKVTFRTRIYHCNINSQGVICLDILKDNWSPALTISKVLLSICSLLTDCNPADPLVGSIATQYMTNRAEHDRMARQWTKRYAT
B1: RNF152 RING domain (UniProt Q8N8N0); chain ETLSQDSLLECQICFNYYSPRRRPKLLDCKHTCCSVCLQQMRTSQKDVRCPWCRGVTKLPPGFS
B2: MEX3B RING domain (UniProt Q6ZN04); chain SGLRRKGSRDCSVCFESEVIAALVPCGHNLFCMECANRICEKSEPECPVCHTAVTQAIRIF
B3: TRIM31 RING domain (UniProt Q9BZY9); chain FVNKLQEEVICPICLDILQKPVTIDCGHNFCLKCITQIGETSCGFFKCPLCKTSVRKNAIRF
B4: RNF166 RING domain (UniProt Q96A37); chain GDSGLEAQYTCPICLEVYHRPVAIGSCGHTFCGECLQPCLQVPSPLCPLCRLPFDPKKVDK
B5: ANAPC11 RING domain (UniProt Q9NYG5); chain GICRMAFNGCCPDCKVPGDDCPLVWGQCSHCFHMHCILKWLHAQQVQQHCPMCRQEWKFKE
B6: DEF8 RING domain (UniProt Q6ZN54); chain AGRLGCSLTEIHTLFAKHIKLDCERCQAKGFVCELCREGDVLFPFDSHTSVCADCSAVFHRDCYYDNSTTCPKCARLSLRK
B7: TRIM26 RING domain (UniProt Q12899); chain PLRSLEEEVTCSICLDYLRDPVTIDCGHVFCRSCTTDVRPISGSRPVCPLCKKPFKKENIRP
B8: TRIM54 RING domain (UniProt Q9BYV2); chain SMDNLEKQLICPICLEMFSKPVVILPCQHNLCRKCANDVFQASNPLWQSRGSTTVSSGGRFRCPSCRHEVVLDRHGV
B9: TRIM60 RING domain (UniProt Q495X7); chain ALVNLQEESSCPICLEYLKDPVTINCGHNFCRSCLSVSWKDLDDTFPCPVCRFCFPYKSFRR
B1 (RNF152 RING domain): 2360
B2 (MEX3B RING domain): 0
B3 (TRIM31 RING domain): 0
LGTKLEAKYLCSACRNVLRRPFQAQCGHRYCSFCLASILSSGPQNCAACVHEGIYEEGIS (TRAF2 RING domain (UniProt Q12933)): 0
LDAASGHPLVCPLCHGQYERPCLLDCFHDFCTGCLRGRATDGRLSCPLCQHQTLVKGPSG (Rnf207 RING domain (UniProt Q3V3A7)): 0
B4 (RNF166 RING domain): 0
B5 (ANAPC11 RING domain): 0
B6 (DEF8 RING domain): 0
AEADPLGRFTCPVCLEVYEKPVQVPCGHVFCSACLQECLKPKKPVCGVCRSALAPGVRAV (RNF114 RING domain (UniProt Q9Y508)): 0
B7 (TRIM26 RING domain): 0
B8 (TRIM54 RING domain): 0
YCEMGSTFQLCKICAENDKDVKIEPCGHLMCTSCLTAWQESDGQGCPFCRCEIKGTEPII (CBLB RING domain (UniProt Q13191)): 0
B9 (TRIM60 RING domain): 0

Set 2 — technique: DHFR PCA, deep sequencing; matrix: yeast; together with: (+)-ABA 58 µM; baseline: wild-type fitted maximum; reading: higher = stronger binding; measurement: relative binding score
Target: ABI1, truncated, D143A, DHFR fusion (Arabidopsis thaliana)
Notes: methotrexate growth selection, single substitutions
Parent: PYL1, truncated, DHFR fusion (Arabidopsis thaliana); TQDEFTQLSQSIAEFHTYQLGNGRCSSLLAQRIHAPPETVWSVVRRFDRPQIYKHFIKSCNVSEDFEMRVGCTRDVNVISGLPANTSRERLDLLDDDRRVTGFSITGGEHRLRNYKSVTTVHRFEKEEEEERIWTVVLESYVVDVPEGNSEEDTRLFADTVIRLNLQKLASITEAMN; partner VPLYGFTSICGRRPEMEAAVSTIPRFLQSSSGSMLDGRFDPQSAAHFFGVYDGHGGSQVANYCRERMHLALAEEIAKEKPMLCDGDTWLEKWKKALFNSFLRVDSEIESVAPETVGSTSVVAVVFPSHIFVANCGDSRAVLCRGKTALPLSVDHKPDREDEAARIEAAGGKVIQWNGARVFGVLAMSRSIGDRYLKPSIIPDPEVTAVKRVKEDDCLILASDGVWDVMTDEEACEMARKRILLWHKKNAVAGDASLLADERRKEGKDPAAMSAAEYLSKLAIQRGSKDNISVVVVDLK
L156R: 63.9%
F15R: 39.1%
R88Q: 78%
D48P: 11.2%
V100Q: 39.8%
T135C: 84.9%
E151N: 75.6%
N85T: 91.7%
F103D: -5.94%
V145D: -6.31%
E4W: 84.7%
R74K: 7.47%
S27F: -4.03%
T73E: 89.5%
I52L: 85.1%
S59E: 87.2%
L82R: -1.41%
S140G: 9.38%

Set 3 — technique: RNAcompete; form: RNA; matrix: in vitro; tested at: 20 nM; notes: 7-mer, probes averaged, single round; baseline: mean of 7-mers; reading: higher = stronger binding; measurement: 7-mer Z-score
Target: PABPC1L2, full length, GST fusion (mouse, UniProt A0ABA7IW68)
Construct (chain): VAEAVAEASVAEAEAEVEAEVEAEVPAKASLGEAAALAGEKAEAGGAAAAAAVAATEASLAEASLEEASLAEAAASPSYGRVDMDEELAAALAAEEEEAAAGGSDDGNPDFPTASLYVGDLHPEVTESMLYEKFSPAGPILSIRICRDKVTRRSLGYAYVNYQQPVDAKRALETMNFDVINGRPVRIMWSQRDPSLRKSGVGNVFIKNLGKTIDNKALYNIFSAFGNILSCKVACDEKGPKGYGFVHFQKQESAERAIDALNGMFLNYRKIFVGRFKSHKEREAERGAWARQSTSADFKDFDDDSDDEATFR
CCUAUCU: -0.22
CAACCGU: -0.253
AUAGGAC: 0.253
CACAAAG: 0.742
CGGCCCG: -0.277
AAAUAAA: 1.56
UGAACUG: -0.142
UGAGCUU: -0.335
AGCUUCA: -0.132
ACUAUAU: -0.119
GUCGCCA: -0.358
GACAGUC: -0.219
AGUGGGA: 0.35
UACGUGC: -0.273
AGUCCAU: -0.277
AGAUUGG: -0.103

Set 4 — target: CCND1, cyclin fold, Cln2 fusion (human); technique: yeast growth competition, sequencing; matrix: yeast; notes: weak parent motif; baseline: not given; reading: higher = stronger binding; measurement: normalised enrichment score
Parent: SLBP docking peptide (human); ARYKRKLLINDFG
AMYKRKLLINDFG [R2M]: 0.0714
ARYCRKLLINDFG [K4C]: -0.361
ARYKRKLLINDQG [F12Q]: -0.313
PRYKRKLLINDFG [A1P]: 0.0834
ARYKRKLLIEDFG [N10E]: 0.504
AHYKRKLLINDFG [R2H]: 0.199
ARYKGKLLINDFG [R5G]: 0.0202
ARYPRKLLINDFG [K4P]: -0.707
ARYKRKLRINDFG [L8R]: -0.535
ARYKRKLLINDFS [G13S]: -0.656
ARYKRKLLIKDFG [N10K]: 0.0521
ARYKRKLLINDHG [F12H]: -0.496

Excerpt of the above (set 2):
F15R: 39.1%
R88Q: 78%
D48P: 11.2%
V100Q: 39.8%
T135C: 84.9%
E151N: 75.6%
N85T: 91.7%
F103D: -5.94%
V145D: -6.31%
